{"data": "Results pooled from the literature", "note": "A part holds a random share of what one study measured. Several values in a cell are separate wells, animals, samples, runs or records.", "UniProt P10721, sequence (whole entry, unmodified, looked up)": "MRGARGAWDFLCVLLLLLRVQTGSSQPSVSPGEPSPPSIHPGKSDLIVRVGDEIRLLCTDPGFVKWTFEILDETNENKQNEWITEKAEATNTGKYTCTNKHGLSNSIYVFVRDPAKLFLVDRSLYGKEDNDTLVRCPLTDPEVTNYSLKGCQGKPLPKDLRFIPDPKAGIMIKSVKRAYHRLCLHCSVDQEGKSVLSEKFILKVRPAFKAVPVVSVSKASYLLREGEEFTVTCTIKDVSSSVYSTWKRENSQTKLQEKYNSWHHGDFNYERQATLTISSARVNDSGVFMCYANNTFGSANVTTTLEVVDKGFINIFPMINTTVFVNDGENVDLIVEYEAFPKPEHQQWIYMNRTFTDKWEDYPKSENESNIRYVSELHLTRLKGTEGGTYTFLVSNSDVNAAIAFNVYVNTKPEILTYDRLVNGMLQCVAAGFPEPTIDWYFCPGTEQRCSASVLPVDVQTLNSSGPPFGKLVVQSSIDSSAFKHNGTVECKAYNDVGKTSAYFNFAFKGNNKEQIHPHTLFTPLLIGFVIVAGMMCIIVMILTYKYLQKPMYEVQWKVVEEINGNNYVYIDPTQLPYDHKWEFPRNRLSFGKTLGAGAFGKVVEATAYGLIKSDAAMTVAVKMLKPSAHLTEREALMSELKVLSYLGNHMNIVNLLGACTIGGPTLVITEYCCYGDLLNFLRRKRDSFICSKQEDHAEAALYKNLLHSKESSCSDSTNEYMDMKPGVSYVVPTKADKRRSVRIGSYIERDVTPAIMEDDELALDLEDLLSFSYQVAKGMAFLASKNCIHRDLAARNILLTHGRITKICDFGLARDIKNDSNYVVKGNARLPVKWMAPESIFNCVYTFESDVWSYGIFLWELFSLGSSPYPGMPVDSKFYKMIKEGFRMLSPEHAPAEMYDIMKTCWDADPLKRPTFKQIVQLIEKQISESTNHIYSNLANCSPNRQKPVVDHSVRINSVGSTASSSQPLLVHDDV", "UniProt O00750, sequence (whole entry, looked up)": "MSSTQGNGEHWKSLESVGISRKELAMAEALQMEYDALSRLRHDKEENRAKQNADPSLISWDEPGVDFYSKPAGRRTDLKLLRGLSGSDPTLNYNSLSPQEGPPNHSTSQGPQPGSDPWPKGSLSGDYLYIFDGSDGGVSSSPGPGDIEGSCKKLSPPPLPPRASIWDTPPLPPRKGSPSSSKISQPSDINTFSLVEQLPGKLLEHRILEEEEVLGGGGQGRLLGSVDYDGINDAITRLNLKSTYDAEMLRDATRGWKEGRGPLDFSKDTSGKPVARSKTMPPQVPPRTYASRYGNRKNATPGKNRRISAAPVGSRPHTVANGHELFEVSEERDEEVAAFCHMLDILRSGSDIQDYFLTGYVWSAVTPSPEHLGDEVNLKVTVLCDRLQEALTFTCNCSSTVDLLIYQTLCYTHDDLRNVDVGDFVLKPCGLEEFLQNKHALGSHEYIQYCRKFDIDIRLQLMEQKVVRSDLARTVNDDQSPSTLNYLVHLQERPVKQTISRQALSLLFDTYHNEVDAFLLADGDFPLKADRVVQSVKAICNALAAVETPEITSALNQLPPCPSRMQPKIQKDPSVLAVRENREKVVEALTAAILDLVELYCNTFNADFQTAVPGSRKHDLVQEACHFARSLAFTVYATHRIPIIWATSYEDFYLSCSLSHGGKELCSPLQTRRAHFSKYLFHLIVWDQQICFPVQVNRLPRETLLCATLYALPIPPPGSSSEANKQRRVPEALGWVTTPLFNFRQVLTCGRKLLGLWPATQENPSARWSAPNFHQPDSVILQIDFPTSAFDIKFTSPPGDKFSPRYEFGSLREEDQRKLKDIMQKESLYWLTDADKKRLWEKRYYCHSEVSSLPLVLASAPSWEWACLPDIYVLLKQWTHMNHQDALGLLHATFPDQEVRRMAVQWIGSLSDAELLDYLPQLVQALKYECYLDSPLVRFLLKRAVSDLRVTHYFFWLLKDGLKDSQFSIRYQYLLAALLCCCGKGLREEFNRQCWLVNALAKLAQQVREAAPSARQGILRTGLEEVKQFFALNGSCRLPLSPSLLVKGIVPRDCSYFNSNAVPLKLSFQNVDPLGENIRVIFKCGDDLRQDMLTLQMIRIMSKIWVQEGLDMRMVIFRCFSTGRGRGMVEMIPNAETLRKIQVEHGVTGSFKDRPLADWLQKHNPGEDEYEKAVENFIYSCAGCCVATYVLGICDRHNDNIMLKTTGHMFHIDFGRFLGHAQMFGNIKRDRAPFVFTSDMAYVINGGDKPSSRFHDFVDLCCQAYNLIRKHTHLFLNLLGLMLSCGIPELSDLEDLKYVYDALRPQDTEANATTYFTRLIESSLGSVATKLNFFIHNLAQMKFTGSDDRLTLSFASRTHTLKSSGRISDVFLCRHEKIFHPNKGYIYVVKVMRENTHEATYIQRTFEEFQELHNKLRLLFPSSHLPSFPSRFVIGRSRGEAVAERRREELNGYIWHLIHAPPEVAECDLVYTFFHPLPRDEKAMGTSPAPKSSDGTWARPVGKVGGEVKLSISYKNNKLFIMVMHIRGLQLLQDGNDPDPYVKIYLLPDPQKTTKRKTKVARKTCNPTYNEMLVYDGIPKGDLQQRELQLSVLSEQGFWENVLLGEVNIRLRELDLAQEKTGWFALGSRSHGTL", "UniProt O75676, sequence (whole entry, looked up)": "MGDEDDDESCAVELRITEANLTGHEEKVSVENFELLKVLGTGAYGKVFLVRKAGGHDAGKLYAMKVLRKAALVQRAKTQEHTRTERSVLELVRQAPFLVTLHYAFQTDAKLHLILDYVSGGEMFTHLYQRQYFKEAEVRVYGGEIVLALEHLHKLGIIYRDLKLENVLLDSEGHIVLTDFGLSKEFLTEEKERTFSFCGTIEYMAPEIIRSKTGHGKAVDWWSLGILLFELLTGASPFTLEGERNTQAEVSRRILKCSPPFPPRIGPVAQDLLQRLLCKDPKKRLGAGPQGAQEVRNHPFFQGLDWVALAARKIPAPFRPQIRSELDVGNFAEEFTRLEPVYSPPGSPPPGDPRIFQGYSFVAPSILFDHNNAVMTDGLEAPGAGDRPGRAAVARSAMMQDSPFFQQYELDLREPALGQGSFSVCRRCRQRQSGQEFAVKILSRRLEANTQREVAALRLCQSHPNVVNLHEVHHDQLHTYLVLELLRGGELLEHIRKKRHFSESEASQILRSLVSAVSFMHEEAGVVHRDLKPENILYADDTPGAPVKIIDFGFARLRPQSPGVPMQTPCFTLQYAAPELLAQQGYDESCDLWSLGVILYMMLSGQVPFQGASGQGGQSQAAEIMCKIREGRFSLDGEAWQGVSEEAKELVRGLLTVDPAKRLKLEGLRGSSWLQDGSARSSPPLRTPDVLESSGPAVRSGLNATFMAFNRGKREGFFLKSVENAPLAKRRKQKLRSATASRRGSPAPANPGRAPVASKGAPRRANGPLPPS", "UniProt Q16584, sequence (whole entry, looked up)": "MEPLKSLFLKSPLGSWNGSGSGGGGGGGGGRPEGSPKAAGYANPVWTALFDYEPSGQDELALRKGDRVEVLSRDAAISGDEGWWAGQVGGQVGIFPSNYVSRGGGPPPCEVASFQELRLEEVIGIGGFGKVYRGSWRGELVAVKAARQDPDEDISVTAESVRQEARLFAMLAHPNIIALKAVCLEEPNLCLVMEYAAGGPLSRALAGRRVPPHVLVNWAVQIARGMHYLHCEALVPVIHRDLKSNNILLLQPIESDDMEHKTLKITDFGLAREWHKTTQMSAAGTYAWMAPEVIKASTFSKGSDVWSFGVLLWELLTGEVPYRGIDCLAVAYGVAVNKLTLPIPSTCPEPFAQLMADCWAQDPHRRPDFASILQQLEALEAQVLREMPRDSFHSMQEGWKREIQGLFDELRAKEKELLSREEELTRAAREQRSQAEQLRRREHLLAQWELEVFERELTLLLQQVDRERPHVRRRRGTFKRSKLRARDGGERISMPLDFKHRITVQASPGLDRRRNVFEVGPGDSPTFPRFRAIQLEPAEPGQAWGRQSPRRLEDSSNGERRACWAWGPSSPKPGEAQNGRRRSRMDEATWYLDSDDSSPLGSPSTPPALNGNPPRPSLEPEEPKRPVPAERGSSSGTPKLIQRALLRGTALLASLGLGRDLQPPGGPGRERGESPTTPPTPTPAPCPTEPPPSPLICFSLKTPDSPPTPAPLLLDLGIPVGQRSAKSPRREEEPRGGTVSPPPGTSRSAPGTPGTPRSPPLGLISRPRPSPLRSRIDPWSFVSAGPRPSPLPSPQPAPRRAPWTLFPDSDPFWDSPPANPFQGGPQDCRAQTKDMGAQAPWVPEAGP", "UniProt P53350, sequence (whole entry, looked up)": "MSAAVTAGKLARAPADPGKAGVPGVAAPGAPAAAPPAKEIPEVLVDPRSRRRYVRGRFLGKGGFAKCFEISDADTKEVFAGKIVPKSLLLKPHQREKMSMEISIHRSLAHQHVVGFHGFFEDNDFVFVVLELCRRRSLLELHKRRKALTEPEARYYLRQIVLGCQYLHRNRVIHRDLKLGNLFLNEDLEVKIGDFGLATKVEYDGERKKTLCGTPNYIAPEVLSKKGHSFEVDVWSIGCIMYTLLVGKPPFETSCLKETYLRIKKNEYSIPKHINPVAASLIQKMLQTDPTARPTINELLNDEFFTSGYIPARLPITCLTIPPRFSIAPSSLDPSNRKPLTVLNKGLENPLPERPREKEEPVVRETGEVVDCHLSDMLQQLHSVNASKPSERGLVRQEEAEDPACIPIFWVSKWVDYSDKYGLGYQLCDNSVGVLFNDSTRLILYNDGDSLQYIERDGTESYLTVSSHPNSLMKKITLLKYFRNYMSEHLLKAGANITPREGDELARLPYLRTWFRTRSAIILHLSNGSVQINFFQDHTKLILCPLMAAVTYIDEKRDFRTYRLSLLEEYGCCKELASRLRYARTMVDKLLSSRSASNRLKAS"}
{"data": "Set 1", "SMILES": "CC(C)(C(=O)O)[C@H](NC(=O)Cc1cccc(I)c1)c1ccc2oc(=O)[nH]c2c1", "technique": "Incucyte 3D growth", "tested at": "30 µM", "reading": "higher = more growth"}
{"cell line": "NCI-H1437", "conditions": "54 h", "spheroid area": "2.08e+07 a.u. and 2.29e+07 a.u. and 2.65e+07 a.u. and 2.78e+07 a.u. and 2.04e+07 a.u."}
{"cell line": "NCI-H358", "conditions": "78 h", "spheroid area": "4.21e+06 a.u. and 3.79e+06 a.u. and 3.53e+06 a.u."}
{"cell line": "MEL-JUSO", "conditions": "36.52 h", "spheroid area": "1.19e+07 a.u. and 1.24e+07 a.u. and 1.22e+07 a.u. and 1.04e+07 a.u. and 1.02e+07 a.u."}
{"cell line": "IPC-298", "conditions": "294 h", "spheroid area": "2.92e+07 a.u. and 4.11e+07 a.u. and 3.58e+07 a.u. and 3.73e+07 a.u. and 4.28e+07 a.u. and 2.69e+07 a.u."}
{"cell line": "MEL-JUSO", "conditions": "252.52 h", "spheroid area": "2.41e+07 a.u. and 3.07e+07 a.u. and 1.81e+07 a.u. and 1.8e+07 a.u. and 1.91e+07 a.u. and 1.69e+07 a.u."}
{"cell line": "NCI-H358", "conditions": "150 h", "spheroid area": "5.14e+06 a.u. and 5.72e+06 a.u. and 8.86e+06 a.u. and 7.29e+06 a.u. and 5.24e+06 a.u. and 6.99e+06 a.u."}
{"data": "Set 2", "SMILES": "CN(C)C(=O)Cn1cc(-c2nc([C@@](C)(c3ccc(-c4cnc(N)nc4)cc3)C3CC3)no2)cn1", "observed": "cell-free assay", "technique": "competition with immobilised ligand", "tested at": "1 µM"}
{"target": "HIPK1 (Homo sapiens, UniProt Q86Z02)", "remaining binding": "96%"}
{"target": "MYLK (Homo sapiens, UniProt Q15746)", "remaining binding": "84%"}
{"target": "Ribosomal protein S6 kinase alpha-2, C-terminal kinase domain (RPS6KA2, Homo sapiens, UniProt Q15349)", "remaining binding": "100%"}
{"target": "DYRK1A (Homo sapiens, UniProt Q13627)", "remaining binding": "73%"}
{"target": "KIT (Homo sapiens, UniProt P10721, D816V)", "remaining binding": "94%"}
{"target": "PIK3C2B (Homo sapiens, UniProt O00750)", "remaining binding": "96%"}
{"target": "EPHA5 (Homo sapiens, UniProt P54756)", "remaining binding": "100%"}
{"target": "CLK4 (Homo sapiens, UniProt Q9HAZ1)", "remaining binding": "99%"}
{"target": "TNIK (Homo sapiens, UniProt Q9UKE5)", "remaining binding": "100%"}
{"target": "KIT (Homo sapiens, UniProt P10721)", "remaining binding": "87%"}
{"target": "MAP3K11 (Homo sapiens, UniProt Q16584)", "remaining binding": "77%"}
{"target": "KIT (Homo sapiens, UniProt P10721, V559D/V654A)", "remaining binding": "93%"}
{"target": "PAK2 (Homo sapiens, UniProt Q13177)", "remaining binding": "90%"}
{"target": "Ribosomal protein S6 kinase alpha-4, C-terminal kinase domain (RPS6KA4, Homo sapiens, UniProt O75676)", "remaining binding": "72%"}
{"target": "EGFR (Homo sapiens, UniProt P00533, G719S)", "remaining binding": "98%"}
{"target": "CLK1 (Homo sapiens, UniProt P49759)", "remaining binding": "93%"}
{"target": "TNK2 (Homo sapiens, UniProt Q07912)", "remaining binding": "91%"}
{"target": "Tyrosine-protein kinase ABL1, non-phosphorylated (ABL1, Homo sapiens, UniProt P00519)", "remaining binding": "84%"}
{"target": "CAMK2A (Homo sapiens, UniProt Q9UQM7)", "remaining binding": "96%"}
{"target": "BRSK1 (Homo sapiens, UniProt Q8TDC3)", "remaining binding": "98%"}
{"target": "NEK11 (Homo sapiens, UniProt Q8NG66)", "remaining binding": "100%"}
{"target": "Tyrosine-protein kinase ABL1, phosphorylated (ABL1, Homo sapiens, UniProt P00519, M351T)", "remaining binding": "80%"}
{"target": "STK38 (Homo sapiens, UniProt Q15208)", "remaining binding": "80%"}
{"target": "ROCK1 (Homo sapiens, UniProt Q13464)", "remaining binding": "97%"}
{"target": "KIT (Homo sapiens, UniProt P10721, A829P)", "remaining binding": "80%"}
{"data": "Set 3", "technique": "PRP chromatography estimate", "sample": "1,9-decadiene/PBS", "pH": "7.4"}
{"SMILES": "CC(C)C[C@@H]1NC(=O)[C@H](CC(C)C)NC(=O)[C@@H](CC(C)C)NC(=O)[C@@H](C)NC(=O)[C@H](C(C)C)NC(=O)[C@H](Cc2cscn2)NC(=O)[C@H](C)NC1=O", "logD": -2.04}
{"SMILES": "CC(C)C[C@@H]1NC(=O)[C@H](C)NC(=O)[C@H](CC(C)C)NC(=O)[C@@H](CC(C)C)NC(=O)[C@H](CC(C)C)NC(=O)[C@H](C)NC(=O)[C@@H](CC(C)C)NC1=O", "logD": -0.341}
{"SMILES": "CC(C)C[C@@H]1NC(=O)[C@H](CC(C)C)NC(=O)[C@@H](CC(C)C)NC(=O)[C@H](C(C)C)NC(=O)[C@@H](CCC(=O)N2CCCC2)NC(=O)[C@H](C)NC(=O)[C@H](C)NC1=O", "logD": -2.54}
{"SMILES": "CC(C)C[C@@H]1NC(=O)[C@H](C)NC(=O)[C@H](Cc2cscn2)NC(=O)[C@H](C)NC(=O)[C@@H](CCC(=O)N2CCCC2)NC(=O)[C@H](CC(C)C)NC(=O)[C@@H](CC(C)C)NC1=O", "logD": -2.85}
{"data": "Set 4", "Compound": "O=C(Nc1cnn(-c2csc(C(=O)NC3COC3)c2)c1)Nc1ccccc1Cl", "observed": "enzyme activity", "tested at": "5 µM"}
{"target": "SIK3 (Homo sapiens, UniProt Q9Y2K2)", "how to read": "baseline: untreated control", "remaining activity": "91.6%"}
{"target": "MAPK8 (Homo sapiens, UniProt P45983)", "how to read": "baseline: untreated control", "remaining activity": "55.9%"}
{"target": "RPS6KB2 (Homo sapiens, UniProt Q9UBS0)", "test": "inhibitor", "remaining activity": "94.2%"}
{"target": "CDC42BPA (Homo sapiens, UniProt Q5VT25)", "how to read": "baseline: untreated control", "remaining activity": "96.2%"}
{"target": "PLK1 (Homo sapiens, UniProt P53350)", "how to read": "baseline: untreated control", "remaining activity": "94.3%"}
{"data": "Set 5", "target": "panel of 300 human kinases", "tested at": "0.5 µM", "reading": "higher = more selective"}
{"SMILES": "CC[n+]1c(/C=C/N(C)c2ccccc2)n(-c2ccccc2)c2ccc(-c3nc4ccccc4s3)cc21", "Gini score": 0.68}
{"SMILES": "Cc1cc2ncc(-c3ccccc3)nc2cc1C", "Gini score": 0.6}
{"SMILES": "O=c1cc(-c2cccc3c2Sc2ccccc2S3)oc(N2CCOCC2)c1", "Gini score": 0.74}
{"SMILES": "O=C1C(Cl)=C(N2C(=O)CCC2=O)C(=O)c2ccccc21", "Gini score": 0.74}
{"SMILES": "CCOc1nc(NC(=O)Cc2cc(OC)ccc2OC)cc(N)c1C#N", "Gini score": 0.73}
{"data": "Set 6", "cell line": "mouse MPNST tumor cells", "technique": "high-content nuclear imaging", "refers to": "cell number", "tested at": "10 µM", "time": "12 h", "setting": "mean of 2 replicates", "baseline": "plate mean", "reading": "higher = more cells"}
{"Compound": "O=C(CCCCCCC(=O)Nc1cccnc1)NO", "nuclei count": "0.826 z-score"}
{"Compound": "CCC(C)CNCC(=O)N1CCc2sccc2C1COc1cccc(C)c1 (stereo not drawn)", "nuclei count": "-2.8 z-score"}
{"Compound": "COc1ccc(S(=O)(=O)Nc2c(C)cc(C)cc2C)cc1", "nuclei count": "1.45 z-score"}
{"Compound": "O=C(O)CC1CC(c2ccccc2)=NO1 (stereo not drawn)", "nuclei count": "2.01 z-score"}
{"Compound": "CN1C(CCl)Nc2cc(Cl)c(S(N)(=O)=O)cc2S1(=O)=O (stereo not drawn)", "nuclei count": "-0.368 z-score"}
{"data": "Other studies, line by line"}
{"SMILES": "C=CCc1ccc(O)c(-c2ccc(O)c(CC=C)c2)c1", "target": "Anoctamin-1 (ANO1, Homo sapiens, UniProt Q5XXA6, del476-501)", "test": "chloride current, inhibitor, whole-cell voltage clamp", "conditions": "wild type at -100 mV, with: 10 µM magnolol", "how to read": "baseline: with over without magnolol", "quantity": "potency fold increase", "result": 2.79}
